Measurements collected from several papers.
Compare with care: the assays were run in different laboratories.
Organism: Staphylococcus aureus

Structure (SMILES) | assay | test system | setting | MIC
CCCCCCCCCCCC[N+](C)(C)CCCCOc1cc(OCCCC[N+](C)(C)CCCCCCCCCCCC)cc(OCCCC[N+](C)(C)CCCCCCCCCCCC)c1.[Br-].[Br-].[Br-] |  | CA-MRSA USA300-0114 |  | 2 µM
C=CCOc1c(C)c(OC)c(C(=O)/C=C/c2ccccc2)c(OCC=C)c1C | microbial growth, broth dilution | ATCC25923 |  | 5000 µg/mL
COc1c(NC(=O)c2ccc(NC(=O)[C@H](Cc3c[nH]nn3)NC(=O)c3ccc(NC(=O)/C(C)=C/c4ccc(O)cc4)cc3)cc2)ccc(C(=O)Nc2ccc(C(=O)O)c(O)c2)c1O | broth microdilution | ciprofloxacin-resistant |  | 2 µg/mL
CC[C@H](C)[C@H](N)C(=O)N1CCC[C@H]1C(=O)N[C@@H](Cc1ccccc1)C(=O)N[C@@H](Cc1c[nH]c2ccccc12)C(=O)N[C@@H](CCCNC(=N)N)C(=O)N[C@@H](Cc1c[nH]c2ccccc12)C(=O)N[C@@H](CC(C)C)C(=O)N[C@@H](CC(C)C)C(=O)N[C@@H](CCC(N)=O)C(=O)N[C@@H](CCCNC(=N)N)C(=O)N[C@@H](CC(C)C)C(=O)N1CCC[C@H]1C(=O)NCC(=O)O | broth microdilution | MRSA, cation-adjusted Mueller-Hinton broth | 16 h, 37 °C | 32 µg/mL
CN[C@H](CC(C)C)C(=O)N[C@H]1C(=O)N[C@@H](CC(N)=O)C(=O)N[C@H]2C(=O)N[C@H]3C(=O)N[C@H](C(=O)N[C@H](C(=O)NCc4cn(CCCCC(=O)N[C@H](C(=O)N[C@@H](CCN)C(=O)N[C@H]5CCNC(=O)[C@H]([C@@H](C)O)NC(=O)[C@H](CCN)NC(=O)[C@H](CCN)NC(=O)[C@H](CC(C)C)NC(=O)[C@@H](CC(C)C)NC(=O)[C@H](CCN)NC5=O)[C@@H](C)O)nn4)c4cc(O)cc(O)c4-c4cc3ccc4O)[C@H](O)c3ccc(c(Cl)c3)Oc3cc2cc(c3O[C@@H]2O[C@H](CO)[C@@H](O)[C@H](O)[C@H]2O[C@H]2C[C@](C)(N)[C@H](O)[C@H](C)O2)Oc2ccc(cc2Cl)[C@H]1O | broth microdilution | MRSA USA300, cation-adjusted Mueller-Hinton broth | 20 to 24 h, 37 °C, 0.002% polysorbate 80 | 0.25 µg/mL
CC[C@H]1OC(=O)[C@H](C)C(=O)[C@H](C)[C@@H](O[C@@H]2O[C@H](C)C[C@H](N(C)C)[C@H]2O)[C@](C)(OC)C[C@@H](C)C(=O)[C@H](C)[C@H]2N(CCCCn3cnc(-c4cccnc4)c3)C(=O)O[C@]12C |  | DSM 20231 MSSA |  | 0.3 µg/mL
COc1cc(C(=O)O)ccc1NC(=O)c1ccc(NC(=O)c2ccc(NC(=O)[C@H](Cc3c[nH]nn3)NC(=O)c3ccc(NC(=O)/C(C)=C/c4ccc(O)cc4)cc3)cc2)cc1O | broth microdilution | ciprofloxacin-sensitive |  | 32 µg/mL
CCCCCCn1cc[n+](CCCCCCCCCCOc2cc(OCCCCCCCCCC[n+]3ccn(CCCCCC)c3)cc(OCCCCCCCCCC[n+]3ccn(CCCCCC)c3)c2)c1.[Br-].[Br-].[Br-] |  | HA-MRSA ATCC 33591 |  | 8 µM
CN[C@H](CC(C)C)C(=O)N[C@H]1C(=O)N[C@@H](CC(N)=O)C(=O)N[C@H]2C(=O)N[C@H]3C(=O)N[C@H](C(=O)N[C@H](C(=O)O)c4cc(O)cc(O)c4-c4cc3ccc4O)[C@H](O)c3ccc(c(Cl)c3)Oc3cc2cc(c3O[C@@H]2O[C@H](CO)[C@@H](O)[C@H](O)[C@H]2O[C@H]2C[C@](C)(NCc3ccc(OCc4cn(CCCCC(=O)N[C@H](C(=O)N[C@@H](CCN)C(=O)N[C@H]5CCNC(=O)[C@H]([C@@H](C)O)NC(=O)[C@H](CCN)NC(=O)[C@H](CCN)NC(=O)[C@H](CC(C)C)NC(=O)[C@@H](CC(C)C)NC(=O)[C@H](CCN)NC5=O)[C@@H](C)O)nn4)c(OC)c3)[C@H](O)[C@H](C)O2)Oc2ccc(cc2Cl)[C@H]1O | broth microdilution | MSSA ATCC 29213, cation-adjusted Mueller-Hinton broth | 20 to 24 h, 37 °C, 0.002% polysorbate 80 | 0.25 µg/mL
C=C1CNCC2Nc3c(F)cc(Br)cc3C12CCNS(=O)(=O)c1ccc(Cl)cc1 (stereo not shown) |  | MRSA ATCC BAA-44 | compound alone | 8 µg/mL
CC[C@H]1OC(=O)[C@H](C)[C@@H](OC(=O)c2ccc([N+](=O)[O-])cc2)[C@H](C)[C@@H](O[C@@H]2O[C@H](C)C[C@H](N(C)C)[C@H]2O)[C@](C)(OC)C[C@@H](C)C(=O)[C@H](C)[C@@H](O)[C@]1(C)O | microbial growth | BAA976 |  | > 64 µg/mL
CCCCCCn1cc[n+](CCCCOc2cc(OCCCC[n+]3ccn(CCCCCC)c3)cc(OCCCC[n+]3ccn(CCCCCC)c3)c2)c1.[Br-].[Br-].[Br-] |  | CA-MRSA USA300-0114 |  | 2 µM
Oc1c(Br)cc(Br)c2nc3cc(C(F)(F)F)ccc3nc12 |  | 147 MRSA clinical isolate |  | 0.08 µM
CC[C@H]1OC(=O)[C@H](C)[C@@H](OC(=O)Cc2ccc(N)cc2)[C@H](C)[C@@H](O[C@@H]2O[C@H](C)C[C@H](N(C)C)[C@H]2O)[C@](C)(OC)C[C@@H](C)C(=O)[C@H](C)[C@@H](O)[C@]1(C)O | microbial growth | BAA976 |  | 16 µg/mL
CCCCCCCC[N+](C)(C)CCCCCCCCOc1cc(OCCCCCCCC[N+](C)(C)CCCCCCCC)cc(OCCCCCCCC[N+](C)(C)CCCCCCCC)c1.[Br-].[Br-].[Br-] |  | CA-MRSA USA300-0114 |  | 1 µM
CC[C@H]1OC(=O)[C@H](C)[C@@H](OC(=O)Cc2ccc(Cl)cc2)[C@H](C)[C@@H](O[C@@H]2O[C@H](C)C[C@H](N(C)C)[C@H]2O)[C@](C)(OC)C[C@@H](C)C(=O)[C@H](C)[C@@H](O)[C@]1(C)O | microbial growth | BAA976 |  | 4 µg/mL
CC(=O)NC[C@H]1CN(c2ccc(N3CCN(C(=O)CN)CC3)c(F)c2)C(=O)O1 | microbial growth, broth dilution | NEWMAN |  | 50 µM

Structure (SMILES) | assay | test system | setting | MIC
CNC(C)C1CCC(N)C(OC2C(N)CC(N)C(OC3OCC(C)(O)C(NC)C3O)C2O)O1 (stereo not shown) | microbial growth, broth dilution | 43300 |  | 32 µM
CCCCCCCCCCn1cc[n+](CCCCCCCCCCOc2cc(OCCCCCCCCCC[n+]3ccn(CCCCCCCCCC)c3)cc(OCCCCCCCCCC[n+]3ccn(CCCCCCCCCC)c3)c2)c1.[Br-].[Br-].[Br-] |  | CA-MRSA USA300-0114 |  | 8 µM
CCCCCC(=O)Oc1c(C)c(OC)c2c(/C=C/c3ccccc3)c(CCCC)c(=O)oc2c1C | microbial growth, broth dilution | ATCC25923 |  | 2500 µg/mL
CC[C@H]1OC(=O)[C@H](C)[C@@H](OC(=O)Cc2cccc([N+](=O)[O-])c2)[C@H](C)[C@@H](O[C@@H]2O[C@H](C)C[C@H](N(C)C)[C@H]2O)[C@](C)(OC)C[C@@H](C)C(=O)[C@H](C)[C@@H](O)[C@]1(C)O |  | DSM 20231 MSSA |  | 0.5 µg/mL
C/C(=C\c1ccc(O)cc1)C(=O)Nc1ccc(C(=O)N[C@@H](Cc2c[nH]nn2)C(=O)Nc2ccc(C(=O)Nc3ccc(C(=O)Nc4ccc(C(=O)O)c(O)c4)c(O)c3)cc2)cc1 | broth microdilution | ciprofloxacin-resistant |  | 2 µg/mL
COc1c(NC(=O)c2ccc(NC(=O)c3ccc(NC(=O)[C@H](CC#N)NC(=O)c4ccc(NC(=O)/C(C)=C/c5ccc(O)cc5)cc4)cc3)c(OC)c2O)ccc(C(=O)O)c1O | microbial growth | ATCC29213 |  | 0.4 µg/mL
CCC(CC)c1cc(CCN2CCCN(S(=O)(=O)c3cccc4cccnc34)CC2)nc(-c2ccccn2)n1 | microbial growth, broth dilution | ATCC29213 |  | > 16 µg/mL
CCCCCCCCCCCC[N+](C)(C)CCCCCCOc1cc(OCCCCCC[N+](C)(C)CCCCCCCCCCCC)cc(OCCCCCC[N+](C)(C)CCCCCCCCCCCC)c1.[Br-].[Br-].[Br-] |  | SH1000 MSSA |  | 2 µM
CC[C@H](C)[C@H](N)C1=N[C@H](C(=O)N[C@@H](CC(C)C)C(=O)N[C@H](CCC(=O)O)C(=O)N[C@H](C(=O)N[C@H]2CCCCNC(=O)[C@H](CC(N)=O)NC(=O)[C@@H](CC(=O)O)NC(=O)[C@H](Cc3c[nH]cn3)NC(=O)[C@@H](Cc3ccccc3)NC(=O)[C@H]([C@@H](C)CC)NC(=O)[C@@H](CCCN)NC2=O)[C@@H](C)CC)CS1 | broth microdilution | ATCC 29213, LB medium | no added Zn2+ | 16 µg/mL
CCCCC=CC(=O)NC(Cc1cc(F)cc(F)c1)C(=O)NC1COC(=O)C2CCCN2C(=O)C(C)NC(=O)C(C)N(C)C(=O)C2CCCN2C1=O (stereo not shown) | microbial growth, broth dilution |  |  | 0.78 µg/mL
CC[C@H]1OC(=O)[C@H](C)[C@@H](OC(=O)CC2CCCCC2)[C@H](C)[C@@H](O[C@@H]2O[C@H](C)C[C@H](N(C)C)[C@H]2O)[C@](C)(OC)C[C@@H](C)C(=O)[C@H](C)[C@@H](O)[C@]1(C)O |  | ATCC 43300 MRSA |  | 256 µg/mL
CCCCCCn1cc[n+](CCCCCCCCOc2cc(OCCCCCCCC[n+]3ccn(CCCCCC)c3)cc(OCCCCCCCC[n+]3ccn(CCCCCC)c3)c2)c1.[Br-].[Br-].[Br-] |  | CA-MRSA USA300-0114 |  | 1 µM
CC[C@H]1OC(=O)[C@H](C)[C@@H](OC(=O)Cc2ccc(OC(F)(F)F)cc2)[C@H](C)[C@@H](O[C@@H]2O[C@H](C)C[C@H](N(C)C)[C@H]2O)[C@](C)(OC)C[C@@H](C)C(=O)[C@H](C)[C@@H](O)[C@]1(C)O | microbial growth | BAA976 |  | 16 µg/mL
CC1C=CC=CC(C)C2C=CC3CC(C)(O)C(Cl)C(C)C3C2C(=O)C(Cl)(Cl)C(=O)C(C)C(=O)O1 (stereo not shown) |  | MRSA clinical isolate | resistant OXA/GEN/TET | 0.1 µg/mL
CCCCCCCCn1cc[n+](CCCCOc2cc(OCCCC[n+]3ccn(CCCCCCCC)c3)cc(OCCCC[n+]3ccn(CCCCCCCC)c3)c2)c1.[Br-].[Br-].[Br-] |  | CA-MRSA USA300-0114 |  | 0.5 µM
COc1cc(C(=O)Nc2ccc(C(=O)O)cc2)ccc1NC(=O)c1ccc(NC(=O)[C@H](Cc2c[nH]nn2)NC(=O)c2ccc(NC(=O)/C(C)=C/c3ccc(O)cc3)cc2)cc1 | broth microdilution | ciprofloxacin-resistant |  | 32 µg/mL
N=C(N)NCCC[C@@H]1NC(=O)[C@@H](CCCNC(=N)N)NC(=O)[C@H](CCCNC(=N)N)NC(=O)[C@@H](C(c2ccccc2)c2ccccc2)NC(=O)[C@@H](C(c2ccccc2)c2ccccc2)NC(=O)[C@@H](C(c2ccccc2)c2ccccc2)NC(=O)[C@@H](CCCNC(=N)N)NC1=O |  | ATCC 29213, MSSA |  | 4 µg/mL

For quick reference, copied from above:
Structure (SMILES) | assay | test system | setting | MIC
CNC(C)C1CCC(N)C(OC2C(N)CC(N)C(OC3OCC(C)(O)C(NC)C3O)C2O)O1 (stereo not shown) | microbial growth, broth dilution | 43300 |  | 32 µM
CCCCCCCCn1cc[n+](CCCCOc2cc(OCCCC[n+]3ccn(CCCCCCCC)c3)cc(OCCCC[n+]3ccn(CCCCCCCC)c3)c2)c1.[Br-].[Br-].[Br-] |  | CA-MRSA USA300-0114 |  | 0.5 µM
COc1c(NC(=O)c2ccc(NC(=O)[C@H](Cc3c[nH]nn3)NC(=O)c3ccc(NC(=O)/C(C)=C/c4ccc(O)cc4)cc3)cc2)ccc(C(=O)Nc2ccc(C(=O)O)c(O)c2)c1O | broth microdilution | ciprofloxacin-resistant |  | 2 µg/mL
